Assay results pooled from the literature.
Partner: itself
B1: TOP2 C180A/C731A/S16C (Saccharomyces cerevisiae, UniProt P06786); AlexaFluor 488/546 labels; sequence looked up; chain MSTEPVSASDKYQKICQLEHILKRPDTYIGSVETQEQLQWIYDEETDCMIEKNVTIVPGLFKIFDEILVNAADNKVRDPSMKRIDVNIHAEEHTIEVKNDGKGIPIEIHNKENIYIPEMIFGHLLTSSNYDDDEKKVTGGRNGYGAKLCNIFSTEFILETADLNVGQKYVQKWENNMSIAHPPKITSYKKGPSYTKVTFKPDLTRFGMKELDNDILGVMRRRVYDINGSVRDINVYLNGKSLKIRNFKNYVELYLKSLEKKRQLDNGEDGAAKSDIPTILYERINNRWEVAFAVSDISFQQISFVNSIATTMGGTHVNYITDQIVKKISEILKKKKKKSVKSFQIKNNMFIFINCLIENPAFTSQTKEQLTTRVKDFGSRCEIPLEYINKIMKTDLATRMFEIADANEENALKKSDGTRKSRITNYPKLEDANKAGTKEGYKCTLVLTEGDSALSLAVAGLAVVGRDYYGCYPLRGKMLNVREASADQILKNAEIQAIKKIMGLQHRKKYEDTKSLRYGHLMIMTDQDHDGSHIKGLIINFLESSFPGLLDIQGFLLEFITPIIKVSITKPTKNTIAFYNMPDYEKWREEESHKFTWKQKYYKGLGTSLAQEVREYFSNLDRHLKIFHSLQGNDKDYIDLAFSKKKADDRKEWLRQYEPGTVLDPTLKEIPISDFINKELILFSLADNIRSIPNVLDGFKPGQRKVLYGCFKKNLKSELKVAQLAPYVSEATAYHHGEQSLAQTIIGLAQNFVGSNNIYLLLPNGAFGTRATGGKDAAAARYIYTELNKLTRKIFHPADDPLYKYIQEDEKTVEPEWYLPILPMILVNGAEGIGTGWSTYIPPFNPLEIIKNIRHLMNDEELEQMHPWFRGWTGTIEEIEPLRYRMYGRIEQIGDNVLEITELPARTWTSTIKEYLLLGLSGNDKIKPWIKDMEEQHDDNIKFIITLSPEEMAKTRKIGFYERFKLISPISLMNMVAFDPHGKIKKYNSVNEILSEFYYVRLEYYQKRKDHMSERLQWEVEKYSFQVKFIKMIIEKELTVTNKPRNAIIQELENLGFPRFNKEGKPYYGSPNDEIAEQINDVKGATSDEEDEESSHEDTENVINGPEELYGTYEYLLGMRIWSLTKERYQKLLKQKQEKETELENLLKLSAKDIWNTDLKAFEVGYQEFLQRDAEARGGNVPNKGSKTKGKGKRKLVDDEDYDPSKKNKKSTARKGKKIKLEDKNFERILLEQKLVTKSKAPTKIKKEKTPSVSETKTEEEENAPSSTSSSSIFDIKKEDKDEGELSKISNKFKKISTIFDKMGSTSATSKENTPEQDDVATKKNQTTAKKTAVKPKLAKKPVRKQQKVVELSGESDLEILDSYTDREDSNKDEDDAIPQRSRRQRSSRAASVPKKSYVETLELSDDSFIEDDEEENQGSDVSFNEED
B2: ncd residues 293-700 Y485K (x, UniProt P20480); chain MGSMHAALSTEVVHLRQRTEELLRCNEQQAAELETCKEQLFQSNMERKELHNTVMDLRGNIRVFCRIRPPLESEENRMCCTWTYHDESTVELQSIDAQAKSKMGQQIFSFDQVFHPLSSQSDIFEMVSPLIQSALDGYNICIFAYGQTGSGKTYTMDGVPESVGVIPRTVDLLFDSIRGYRNLGWEYEIKATFLEIKNEVLYDLLSNEQKDMEIRMAKNNKNDIYVSNITEETVLDPNHLRHLMHTAKMNRATASTAGNERSSRSHAVTKLELIGRHAEKQEISVGSINLVDLAGSESPKTSTRMTETKNINRSLSELTNVILALLQKQDHIPYRNSKLTHLLMPSLGGNSKTLMFINVSPFQDCFQESVKSLRFAASVNSCKMTKAKRNRYLNNSVANSSTQSNNSGSFDK
B3: SPOP V51E (Homo sapiens, UniProt O43791); sequence looked up; chain MSRVPSPPPPAEMSSGPVAESWCYTQIKVVKFSYMWTINNFSFCREEMGEEIKSSTFSSGANDKLKWCLRVNPKGLDEESKDYLSLYLLLVSCPKSEVRAKFKFSILNAKGEETKAMESQRAYRFVQGKDWGFKKFIRRDFLLDEANGLLPDDKLTLFCEVSVVQDSVNISGQNTMNMVKVPECRLADELGGLWENSRFTDCCLCVAGQEFQAHKAILAARSPVFSAMFEHEMEESKKNRVEINDVEPEVFKEMMCFIYTGKAPNLDKMADDLLAAADKYALERLKVMCEDALCSNLSVENAAEILILADLHSADQLKTQAVDFINYHASDVLETSGWKSMVVSHPHLVAEAYRSLASAQCPFLGPPRKRLKQS
B4: GLRA1 C290S/C345A/A41C (Homo sapiens, UniProt P23415-2); MTS-benzophenone-alkyne at C41; sequence looked up; chain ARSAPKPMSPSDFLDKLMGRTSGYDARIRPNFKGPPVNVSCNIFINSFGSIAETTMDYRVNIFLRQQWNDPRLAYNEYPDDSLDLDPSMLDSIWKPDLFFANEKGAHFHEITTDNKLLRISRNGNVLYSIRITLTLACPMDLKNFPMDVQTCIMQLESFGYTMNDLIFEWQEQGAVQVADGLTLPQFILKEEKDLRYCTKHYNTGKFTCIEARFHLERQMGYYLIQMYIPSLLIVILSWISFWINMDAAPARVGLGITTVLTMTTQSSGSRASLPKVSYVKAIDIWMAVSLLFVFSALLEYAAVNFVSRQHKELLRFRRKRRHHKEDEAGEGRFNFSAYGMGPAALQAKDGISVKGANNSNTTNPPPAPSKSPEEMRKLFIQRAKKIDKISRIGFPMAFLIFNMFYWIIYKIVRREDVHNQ
B5: Gm4951 S230A (Mus musculus, UniProt Q3UED7); sequence looked up; chain MGQLFSSRRSEDQDLSSSFIEYLKECEKGINIIPHEIITSIEINMKKGNIQEVNSTVRDMLREIDNTPLNVALTGETGSGKSSFINTLRGIGHEEGGAAHTGVTDKTKERHPYEHPKMPNVVFWDLPGTGSEDFQPKTYLEKMKFYEYDFFIIISATRFKKNDIDLAKAIGIMKKEFYFVRTQVDSDLRNEEDFKPQTFDREKVLQDIRLNCVNTFRENGIAEPPIFLIANKNVCHYDFPVLMDKLISDLPVFKRQNFMFSLPNITDSVIEKKRNFLRWKTWLEGFADGLLSFFLESDLETLEKSMKFYRTVFGVDDASLQRLARAWEIDQVDQVRAMIKSPAVFTPTDEETIQERLSRYNQEFCLANGYLLPKNHCREILYLKLYFLDMVTEDAKTLLKEICLRN
B6: PHYA 1-950 (Arabidopsis thaliana, UniProt P14712); phytochromobilin thioether linked; chain GMSGSRPTQSSEGSRRSRHSARIIAQTTVDAKLHADFEESGSSFDYSTSVRVTGPVVENQPPRSDKVTTTYLHHIQKGKLIQPFGCLLALDEKTFKVIAYSENASELLTMASHAVPSVGEHPVLGIGTDIRSLFTAPSASALQKALGFGDVSLLNPILVHCRTSAKPFYAIIHRVTGSIIIDFEPVKPYEVPMTAAGALQSYKLAAKAITRLQSLPSGSMERLCDTMVQEVFELTGYDRVMAYKFHEDDHGEVVSEVTKPGLEPYLGLHYPATDIPQAARFLFMKNKVRMIVDCNAKHARVLQDEKLSFDLTLCGSTLRAPHSCHLQYMANMDSIASLVMAVVVNEEDGEGDAPDATTQPQKRKRLWGLVVCHNTTPRFVPFPLRYACEFLAQVFAIHVNKEVELDNQMVEKNILRTQTLLCDMLMRDAPLGIVSQSPNIMDLVKCDGAALLYKDKIWKLGTTPSEFHLQEIASWLCEYHMDSTGLSTDSLHDAGFPRALSLGDSVCGMAAVRISSKDMIFWFRSHTAGEVRWGGAKHDPDDRDDARRMHPRSSFKAFLEVVKTRSLPWKDYEMDAIHSLQLILRNAFKDSETTDVNTKVIYSKLNDLKIDGIQELEAVTSEMVRLIETATVPILAVDSDGLVNGWNTKIAELTGLSVDEAIGKHFLTLVEDSSVEIVKRMLENALEGTEEQNVQFEIKTHLSRADAGPISLVVNACASRDLHENVVGVCFVAHDLTGQKTVMDKFTRIEGDYKAIIQNPNPLIPPIFGTDEFGWCTEWNPAMSKLTGLKREEVIDKMLLGEVFGTQKSCCRLKNQEAFVNLGIVLNNAVTSQDPEKVSFAFFTRGGKYVECLLCVSKKLDREGVVTGVFCFLQLASHELQQALHVQRLAERTAVKRLKALAYIKRQIRNPLSGIMFTRKMIEGTELGPEQRRILQTSALCQKQLSKILDD
B7: ddrC L131M/L184M (Deinococcus radiodurans, UniProt Q9RYE6); selenomethionine; sequence looked up; chain MKNAPLTLNFGSVRLPVSADGLLHAPTAQQQLGLTQSWEAALVEHGLPETYRDFGAGPEAAVSVPDFVALAFALDTPEARRWQKRARELLARAMQGDVRVAAQIAERNPEPDARRWLAARLESTGARRELMATVARHGGEGRVYGQLGSISNRTVLGKDSASVRQERGVKATRDGLTSAELLRMAYIDTVTARAIQESEARGNAAILTLHEQVARSERQSWERAGQVQRVG
B8: SPOP Y87F (Homo sapiens, UniProt O43791); sequence looked up; chain MSRVPSPPPPAEMSSGPVAESWCYTQIKVVKFSYMWTINNFSFCREEMGEVIKSSTFSSGANDKLKWCLRVNPKGLDEESKDYLSLFLLLVSCPKSEVRAKFKFSILNAKGEETKAMESQRAYRFVQGKDWGFKKFIRRDFLLDEANGLLPDDKLTLFCEVSVVQDSVNISGQNTMNMVKVPECRLADELGGLWENSRFTDCCLCVAGQEFQAHKAILAARSPVFSAMFEHEMEESKKNRVEINDVEPEVFKEMMCFIYTGKAPNLDKMADDLLAAADKYALERLKVMCEDALCSNLSVENAAEILILADLHSADQLKTQAVDFINYHASDVLETSGWKSMVVSHPHLVAEAYRSLASAQCPFLGPPRKRLKQS
B9: SIR4 744-1358 (Saccharomyces cerevisiae, UniProt P11978); sequence looked up; chain PGKMELVYVSDSDDSSSDNDSLTDLESLSSGESNEIKVTNDLDTSAEKDQIQAGKWFDPVLDWRKSDRELTKNILWRIADKTTYDKETITDLIEQGIPKHSYLSGNPLTSVTNDICSVENYETSSAFFYQQVHKKDRLQYLPLYAVSTFENTNNTEKNDVTNKNINIGKHSQEQNSSSAKPSQIPTVSSPLGFEETKLSTTPTKSNRRVSHSDTNSSKPKNTKENLSKSSWRQEWLANLKLISVSLVDEFPSELSDSDRQIINEKMQLLKDIFANNLKSAISNNFRESDIIILKGEIEDYPMSSEIKIYYNELQNKPDAKKARFWSFMKTQRFVSNMGFDIQKSCEPVSISTSVKPHVVEPEHMADAKIMPKDILQITKKPLMVKNVKPSSPPDVKSLVQLSTMETKTLPEKKQFDSIFNSNKAKIIPGNGKHASENISLSFSRPASYGYFSVGKRVPIVEDRRVKQLDDITDSNTTEILTSVDVLGTHSQTGTQQSNMYTSTQKTELEIDNKDSVTECSKDMKEDGLSFVDIVLSKAASALDEKEKQLAVANEIIRSLSDEVMRNEIRITSLQGDLTFTKKCLENARSQISEKDAKINKLMEKDFQVNKEIKPY
UniProt Q9ERH6, sequence (whole entry, looked up): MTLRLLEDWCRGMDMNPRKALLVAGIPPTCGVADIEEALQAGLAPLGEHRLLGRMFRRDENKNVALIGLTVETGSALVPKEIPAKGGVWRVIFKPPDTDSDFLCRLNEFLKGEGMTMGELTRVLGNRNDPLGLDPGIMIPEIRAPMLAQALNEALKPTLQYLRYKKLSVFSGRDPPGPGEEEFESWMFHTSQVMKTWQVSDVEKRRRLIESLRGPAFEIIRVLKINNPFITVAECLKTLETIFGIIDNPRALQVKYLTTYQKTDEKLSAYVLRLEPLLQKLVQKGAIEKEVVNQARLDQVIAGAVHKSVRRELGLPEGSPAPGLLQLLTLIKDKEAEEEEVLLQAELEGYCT

Molecule | technique | temperature | notes | with | binding
B1 (TOP2 C180A/C731A/S16C) | FRET or BRET |  |  | ADP, ATP, ADPNP | binds
B2 (ncd residues 293-700 Y485K) | cryo-EM |  |  |  | binds
B3 (SPOP V51E) | negative-stain TEM |  |  |  | binds
B4 (GLRA1 C290S/C345A/A41C) | cross-linking |  |  |  | binds
B5 (Gm4951 S230A) | mass photometry |  |  |  | binds
B6 (PHYA 1-950) | SEC |  |  |  | binds
B7 (ddrC L131M/L184M) | X-ray crystallography | 20 °C | apo, homodimer in lattice |  | binds
KBTBD2 S252D (Homo sapiens) (sequence not shown) | cryo-EM |  |  |  | binds
B8 (SPOP Y87F) | negative-stain TEM |  |  |  | binds
B9 (SIR4 744-1358) | cross-linking mass spectrometry |  |  |  | binds
Pnma4 (Mus musculus, UniProt Q9ERH6) | size-exclusion chromatography, negative-stain TEM |  |  |  | binds

A few entries again:
Molecule | technique | temperature | notes | with | binding
B7 (ddrC L131M/L184M) | X-ray crystallography | 20 °C | apo, homodimer in lattice |  | binds
